Assay results pooled from the literature.
Numbered parts are unrelated; each lists some results of a single study.

Sample 1
Target: RNA binding protein fox-1 homolog 2, RRM domain, GST-SBP tag (RBFOX2, Homo sapiens, UniProt O43251-10, residues 100-194)
Method: RNA Bind-n-Seq
Molecule type: RNA
Medium: in vitro
Concentration: 365 nM
Setting: natural RNA segment, single round, ends assumed
Baseline: no-protein control
Direction: higher = stronger binding
All sequences stand within: GGGAGUUCUACAGUCCGACGAUC … UGGAAUUCUCGGGUGCCAA
Target sequence (chain): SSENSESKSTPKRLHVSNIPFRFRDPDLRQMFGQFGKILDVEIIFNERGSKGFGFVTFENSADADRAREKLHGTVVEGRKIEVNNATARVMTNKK
Oligonucleotide	RBNS enrichment (R)
AGUUUGGUGCUGUUUUAGAGUAUGCCUGCUCCCCAGCCCCCUGCCUGGAACCCUCUGAGCAACUUGCUCUGACCUAUAAUGUCUUAGGUGCAACACGGACCCCACCAGAG	0.668
CUAAGAAGGGAUUUUUGAAUAUGCUAUCUACCUGGAAUCUCUCUCUCAACAAAAGGUAUAUGCCUUCAGGAAUGAUAUAAUCUGUCCCAUUUUCGAGGCUCCUUAUAAGG	0.445
AAGAUUGUAUGCUAUUAUGUCUUGUAAAAAUUCCUUCUGUUGGUGUAAAUAUGGAAAUGCCACAUUGGUUAAGUGCCAUCAAUUGUAAUGCAGUGUGUCAUUUGAAAAGA	1.54
UAAUCUUGCUGUCUGCCUUCCUAGCCUUUUCCACCUUGGCUUGCCUCUGAGGGUAGAUUUUUUUUUUUAAUCCGGUCCCUUGGAUUUAAAAAUAAAAUUAAUUUUCUGUU	0.572
CUGAUGUUGUGUCCGUUUUGUAUUUUAUCUUUUGUUAAAGAUACAUAAAUGACAAUACUUAACUGUGGUGGUUUGUAGCAUUAUUUCUAAUAUUUGGCAGAAAAGUUGUU	0.476
UGAAGGAGAUGGCCAGGCUCCUGGGAGCACUAGCGGCGGAGCCACUGCACCAGGCUGCUGCUUUGUUGUCUGUCUGCUGCCCGUCCCUCCCUGCAGGCCGCAUCAUGGUG	0.749
AGCAGAUGAAGGGAAGGCUCAGAAGGGCAUCUCCUGUAGCUCCUGGCAGCUGGUUCUGGUGGCACUGAGAUGAGUGCCACCAGAGGCUCACACUCACUCUCUGUUGAGCU	0.257
UGUCAGUUUUCUAUUUGCCCUCUUGAGUACAGGGAUGGAUGGAUGGCUGCUCAACACACUCCUCCCCUCUCUCCUUUAAGCUGUGUCCAGUGAAAGCUGUCCUUCCUGUA	0.461
AUGGGAACCGAGCUGAAGCAGAGGCUGAGUUAGGGGGCUAGAGGACAGUGCUCCUGGCCACCCAGCCUCUGCUGAGAACCAUUCCUGGGAUUAGAGCUGCCUUUCCCAGG	0.359
CAAUGUUCUGGGUUGUGCAUGAAAUUGGAUCUGUAGACACUGUGGAAACGUUUGAAAGUGUUUGUUUCCUUCAUAUGAACCUGUAAAAUGCUGUGUAGCUGGAGUUCACG	50.4
UUUUCUCUUAAGAAAGUGCUUUAGCACCGCUGGCUGGCAUCUUUAAUGCAGGUGGUAAACCUAAUUCCAUAAGCAUGGCCUGCCCGAGCCAGAAGGAAGAAGAGCUUGCU	0.33
UUCAAGUGCUAAAAAAAAAAUUAAACCAAGCAGCUUAACCAUGGUUUUGAUUAUUCCUCUAAGAUGAGCUUCUGGGAACAGUAUCACCAAAUGUCCCAAACAUUUAAGCU	0.421

Sample 2
Target: Prothrombin, mature alpha-thrombin (F2, Homo sapiens, UniProt P00734)
Method: aptamer microarray, sandwich
Molecule type: DNA with 2'F-ANA
Medium: in vitro
Concentration: 200 nM
Setting: whole 15-mer aptamer, many near background
Added: Cy3 exosite-II aptamer, 400 nM
Direction: higher = stronger binding
Oligonucleotide: GGTTGGTGTGGTTGG
Modification	mean fluorescence intensity [a.u.]
2'F-ANA at 5 8 12 13 14	47.4
2'F-ANA at 1 2 3 8 10 15	87.6
2'F-ANA at 2 4 6 7 8 9 11 13 15	176
2'F-ANA at 1 2 3 6 8 11 14	69.7
2'F-ANA at 3 4 9 10 12 13	326
2'F-ANA at 1 2 4 5 7 12 13 14 15	124
2'F-ANA at 4 7 9 10 13 14	66.7
2'F-ANA at 2 4 6 9	362
2'F-ANA at 1 2 3 4 5 9 12 14	83.7
2'F-ANA at 1 3 4 6 7 9 10 12 13 15	68
2'F-ANA at 1 2 3 5 6 11 12 15	89.4
2'F-ANA at 1 2 4 5 7 9 10 11 13 15	55.7
2'F-ANA at 1 3 9 10 11 12 13 15	105
2'F-ANA at 3 4 7 11 13	635
2'F-ANA at 1 2 5 6 7 8 9 11 14 15	53.6
2'F-ANA at 2 3 5 14 15	92.6
2'F-ANA at 2 3 4 5 6 9 13 14	48.7
2'F-ANA at 3 4 5 6 12 14	52.3

Sample 3
Target: Transcription factor Sp1 (SP1, Homo sapiens, UniProt P08047, residues 1-785, full length assumed)
Sequence of UniProt P08047 (whole entry, looked up): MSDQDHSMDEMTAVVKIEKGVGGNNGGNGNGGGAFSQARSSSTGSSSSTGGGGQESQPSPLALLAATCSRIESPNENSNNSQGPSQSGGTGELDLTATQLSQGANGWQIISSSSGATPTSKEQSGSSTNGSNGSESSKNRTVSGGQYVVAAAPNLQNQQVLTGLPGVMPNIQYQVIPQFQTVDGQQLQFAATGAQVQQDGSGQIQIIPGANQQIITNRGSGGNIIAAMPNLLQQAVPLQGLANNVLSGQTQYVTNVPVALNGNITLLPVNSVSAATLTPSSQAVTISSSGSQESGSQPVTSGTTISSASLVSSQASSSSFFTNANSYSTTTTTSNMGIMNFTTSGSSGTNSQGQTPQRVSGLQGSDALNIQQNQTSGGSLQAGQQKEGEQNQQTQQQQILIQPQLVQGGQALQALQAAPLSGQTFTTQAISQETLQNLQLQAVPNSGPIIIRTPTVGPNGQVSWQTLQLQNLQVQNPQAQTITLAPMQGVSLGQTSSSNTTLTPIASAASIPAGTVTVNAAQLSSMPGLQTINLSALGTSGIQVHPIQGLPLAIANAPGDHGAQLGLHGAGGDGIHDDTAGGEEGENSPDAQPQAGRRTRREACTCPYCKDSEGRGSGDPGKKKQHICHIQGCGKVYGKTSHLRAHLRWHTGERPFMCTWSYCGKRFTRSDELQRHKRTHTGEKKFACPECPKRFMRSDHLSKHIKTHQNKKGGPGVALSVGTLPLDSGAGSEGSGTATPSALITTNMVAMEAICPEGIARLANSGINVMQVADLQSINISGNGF
Method: protein-binding microarray
Molecule type: double-stranded DNA, one strand shown
Medium: in vitro
Concentration: not given
Setting: k-mer, scored over probes, only values ≥0.25
Direction: higher = stronger binding
Oligonucleotide	E-score
GTACTACA	0.28
GATACATA	0.261
AATATTAA	0.276
CCAGCCCC	0.274
ATGCATCA	0.296
TGTATACA	0.346
GTATTATA	0.259
CCCATCCC	0.372
CGTCCTCC	0.257
CACGAACA	0.261
ATATATAG	0.255
CATGTATA	0.295
AACTAATA	0.26
CCCCTGAC	0.301
GGGGAGGA	0.442
ATACTGAC	0.287
GTATCTAA	0.283
CTCCCTCC	0.273

Sample 4
Target: Interferon regulatory factor 7, full length, phosphomimetic (IRF7, Homo sapiens, UniProt Q92985, residues 1-503, S101K/S471D/S472D/S475D/S476D/S477D/S483D/S484D/S487D)
Method: protein-binding microarray
Molecule type: double-stranded DNA, one strand shown
Medium: in vitro
Concentration: 250 nM
Setting: 60-bp whole probe
Added: salmon DNA 0.4 mg/ml
Baseline: random background probes
Direction: higher = stronger binding
All sequences stand within: GCCTAGCAC … GTCTTGATTCGCTTGACGCTGCTG
Residues (chain): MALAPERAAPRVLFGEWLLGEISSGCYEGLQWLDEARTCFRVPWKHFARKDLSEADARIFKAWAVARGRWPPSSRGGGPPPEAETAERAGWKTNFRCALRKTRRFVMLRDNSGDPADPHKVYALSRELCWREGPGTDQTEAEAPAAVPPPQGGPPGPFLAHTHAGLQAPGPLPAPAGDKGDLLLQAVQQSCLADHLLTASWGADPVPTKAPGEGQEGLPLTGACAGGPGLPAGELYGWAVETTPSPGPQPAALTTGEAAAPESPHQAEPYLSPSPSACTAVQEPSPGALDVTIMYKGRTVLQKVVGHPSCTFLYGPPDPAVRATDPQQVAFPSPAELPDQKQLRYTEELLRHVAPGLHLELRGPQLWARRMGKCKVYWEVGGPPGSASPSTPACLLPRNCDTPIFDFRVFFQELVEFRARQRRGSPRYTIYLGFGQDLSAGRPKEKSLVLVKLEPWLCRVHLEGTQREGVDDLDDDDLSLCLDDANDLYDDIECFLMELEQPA
Oligonucleotide	log fluorescence [z-score]
GACGGTTTGCTTTTCCTGACGTGCTAG	0.622
TCATATATTTGCTTCAGACTGTGCTAG	0.738
TTAGATATCAGTAGCGATTAGTGCTAG	-0.181
TTTGGTTTCGACTTTCGGTTAGTGCTA	12.6
TTGGGTATCGGACTGGGTTAGTGCTAG	-0.0256
TCAGGTATCGGTCTCGGTTAGTGCTAG	2.14
TTAGATAGCGGGACTGGATTAGTGCTA	-0.315
AGGAGTATTTATCTGCAAAGGTGCTAG	-0.204
TTTTTTTTTTTTTTTTACTTGTGCTAG	0.463
TTCTATGTCTGTTTTTGCTTGTGCTAG	0.419
TTAGAACTGGACACTGGGTTAGTGCTA	-0.467
TAAGAACTGAGTTTCGATTAGTGCTAG	8.57
GACGATTCCAGTATCGAGACGTGCTAG	0.441
TTTCTTCTAGACTTCTCCATGTGCTAG	1.45
GACGAATTCAGACTGGAGACGTGCTAG	-0.178
TTAGGTTTCGGGTTGCGGTTAGTGCTA	12.9
GTAGGTTTCCTTTCCCTTTAGTGCTAG	4.35

Sample 5
Target: RING finger protein unkempt homolog, zinc fingers 1-6, GST-SBP tag (UNK, Homo sapiens, UniProt Q9C0B0, residues 30-357)
Method: RNA Bind-n-Seq
Molecule type: RNA
Medium: in vitro
Concentration: not given
Setting: RNA with constant flanks, human-mouse chimeric sites, ends assumed
Baseline: input RNA pool
Direction: higher = stronger binding
All sequences stand within: GGGAGUUCUACAGUCCGACGAUC … CAACAGAGGAUUGAGCAUCA
Residues (chain): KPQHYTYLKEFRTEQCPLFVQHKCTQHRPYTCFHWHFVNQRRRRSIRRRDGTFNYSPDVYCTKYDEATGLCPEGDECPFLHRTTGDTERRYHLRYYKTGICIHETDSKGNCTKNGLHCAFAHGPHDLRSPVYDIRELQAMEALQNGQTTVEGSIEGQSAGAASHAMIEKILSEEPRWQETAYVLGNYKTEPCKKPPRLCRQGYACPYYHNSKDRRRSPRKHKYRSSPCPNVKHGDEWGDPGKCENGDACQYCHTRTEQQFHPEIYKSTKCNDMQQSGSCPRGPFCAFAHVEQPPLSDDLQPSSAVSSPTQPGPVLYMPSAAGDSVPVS
Oligonucleotide	bound/input enrichment [ratio]
GAAACUAUUCCUAAAGAGGAGAAAGCUGAAAAGGAAGCUCGGAGAUCGUCUCUCGAGAAACAUAGAAAAGAAAAGCCUUUUAAAACCGGGAGAGGCAGAAUUUCCACUCCUGAAAGAAAA	0.567
CAGCCUCAGAGCCCAGACUUCCUGGAUAUUACCAACCCUAAAGCGGUAUUAGAAAACGCAUUGAGAAACUUCGCCUGUCUGACGACUGGGGAUGUGAUUGCUAUCAACUACAAUGAGAAG	0.343
GCUCCUCUUCCGCACUCAGCCUGGGGACACUGGGCUGGGACCAGAAUCCAGCUUUCUUUUAAAACUCUCAGUGUAACUGUAUCCCGUGACAUUUCAUUUUUUUUAAAAGAAAAAAACUUU	0.0949
GAAACAUUUAAAUUUAAAGAAGCUGUUGUUUUAGGGAGUACGGACUUUCUAGAAGAUGAUAUAGAGAAAAUUGUAGAAGAACUGGGGAAAGAGUAUAAGGGCAACGCUUAUCAUUUAAUG	3.85
UUGCUACUAACUCCAUGGGUCAAGUUCCUGUGGGAGUCAUACAGGCAGUGUUUGGACCUUCUUCGAAACAAUUCUAGAGUAGAGCGCCUUUACCAUGAUAUCGCCCAACAAGCUUUCAAA	0.151
GUUGCCAGCUUCCGGUUCCGUUGGGCUCGGUUCUCUCAGUGCUACGUUGUCUCUACGCUCUCAAUCCGCCAUCCAACAAACAUGGAUCAGGUAAUGCAGUUUGUGGAUGAGCCAAGUCAG	0.0434
UGACAAGGGCACUGCAGAGCCAUGCCUUUCCUUGACAUCCAGAAAAGGCUGGGCAUCAACAUAGAUCGGCACUUUAUGUUCCUAAGCGCAGAACAGCCCUAUAAGAACGCCGCUCGGUGC	0.0741
AGAGCCCAGGAUGUUGAUGCUACAAAUCCAAAUUACGAAAUUAUGUGUAUGAUCAGAGACUUCAGAGGAAGUUUGGAUUACAGACCCUUAACAACAGCAGAUCCUAUUGAUGAACAUAGG	0.418
GAUAAGAAAAGCUUGUUGGAGACCCGCUUGCAUGUCACUGGUAGAGACCUGAGGUGUCAAAUAGCUGAAACUUUCGGACUUCAAGAAAAUUACAUCAAGAUCGUAAUAAAUAAGAAACAG	0.373
AACAGAUUGUCUUUAAGCAUUCCAAGCAAUGCUUGGGGGGUGAUCAUAAUUACCCACGUGCCUUCUGACUGAGCUUUAAUGCUGUUCCAUGUUACAUCUUUCCUUCACUCCAGAAUUGUU	0.145
UCUGGUCACACUCGUGUGUAUGGUGUUUGCUUUGUGGACACUUCACUGGGAAAGUUUUUCAUCGGCCAGUUUUCAGAUGACCGCCACUGUUCCAGAUUUAGGACGCUAGUGGCUCACUAU	0.248

A few entries again (sample 3):
Oligonucleotide	E-score
CCCCTGAC	0.301
GTATCTAA	0.283
CTCCCTCC	0.273
TGTATACA	0.346
AACTAATA	0.26
ATATATAG	0.255
GTATTATA	0.259
ATGCATCA	0.296
CCAGCCCC	0.274
CCCATCCC	0.372
CACGAACA	0.261
GATACATA	0.261
CGTCCTCC	0.257
